# Assay results gathered from unrelated publications.
# Protocols differ between the studies behind these lines. Several values in a cell are separate wells, animals, samples, runs or records.
# Cell line: SF-539
Structure (SMILES),test,setting,scale,endpoint,value
CSc1nc(-c2ccc(Cl)cc2)c2c(NC(=O)c3ccccc3)nnc-2[nH]1,SRB,"10 µM, NCI60 single-dose screen",baseline: untreated,cell growth,91.5%
C#C[C@@]1(O)[C@@H](CO)O[C@@H](n2ccc3c(N)ncnc32)[C@@H]1O,SRB,NCI-60 screen,,TGI,4440 nM
COc1ccc(OC)c(-c2nc3ccc(-c4nc5ccc(N6CCN(C)CC6)cc5[nH]4)cc3[nH]2)c1,SRB,"10 µM, 48 h",,growth percent,97.5%
O=C(Nc1nnc2n3c(nc(-c4ccc(Cl)cc4)c1-2)SCC3=O)c1ccccc1,SRB,"10 µM, NCI60 single-dose screen",baseline: untreated,cell growth,96.2%
CCCN1CCN(c2ccc3nc(-c4ccc5nc(-c6cc(OC)ccc6OC)[nH]c5c4)[nH]c3c2)CC1,SRB,"10 µM, 48 h",,growth percent,96.2%
O=C(Nc1nnc2[nH]c(=S)[nH]c(-c3ccc(Cl)cc3)c1-2)c1ccccc1,SRB,"10 µM, NCI60 single-dose screen",baseline: untreated,cell growth,94.7%
O=C1NC(=NCc2cccs2)S/C1=C\c1ccc2ncccc2c1,MTS,NCI60 panel,,IC50,2550 nM
O=C(Nc1nnc2n3c(Cc4ccccc4)n[nH]c3nc(-c3ccc(Cl)cc3)c1-2)c1ccccc1,SRB,"10 µM, NCI60 single-dose screen",baseline: untreated,cell growth,96.8%
CCCCN1CCN(c2ccc3nc(-c4ccc5nc(-c6cc(OC)ccc6OC)[nH]c5c4)[nH]c3c2)CC1,SRB,"10 µM, 48 h",,growth percent,92.8%
Cc1cc(C)n(C(=S)[S][Au][PH](CCCCCC[PH]([Au][S]C(=S)n2nc(C)cc2C)(c2ccccc2)c2ccccc2)(c2ccccc2)c2ccccc2)n1,"cell growth, NCI-60 screen",CNS cancer,,log10 TGI,-4.44
C#C[C@@]1(O)[C@@H](CO)O[C@@H](n2cc(I)c3c(N)ncnc32)[C@@H]1O,SRB,NCI-60 screen,,TGI,2180 nM and 2980 nM
CCCN1CCN(c2ccc3[nH]c(-c4ccc5[nH]c(-c6ccc(C(F)(F)F)cc6)nc5c4)nc3c2)CC1,SRB,"10 µM, 48 h",,growth percent,-94.6%
Cn1cncc1C1=CN(c2ncnc3[nH]cnc23)CCS1,,CNS cancer,,GI50,12300 nM
Cc1n[nH]c2nc(-c3ccc(Cl)cc3)c3c(NC(=O)c4ccccc4)nnc-3n12,SRB,"10 µM, NCI60 single-dose screen",baseline: untreated,cell growth,102%
CCCN1CCN(c2ccc3[nH]c(-c4ccc5[nH]c(-c6ccc(OCC)c(OCC)c6)nc5c4)nc3c2)CC1,SRB,"10 µM, 48 h",,growth percent,-87.9%

# Repeated from above:
Structure (SMILES),test,setting,scale,endpoint,value
Cc1n[nH]c2nc(-c3ccc(Cl)cc3)c3c(NC(=O)c4ccccc4)nnc-3n12,SRB,"10 µM, NCI60 single-dose screen",baseline: untreated,cell growth,102%
CCCN1CCN(c2ccc3[nH]c(-c4ccc5[nH]c(-c6ccc(C(F)(F)F)cc6)nc5c4)nc3c2)CC1,SRB,"10 µM, 48 h",,growth percent,-94.6%
